Measured values from different studies.
Compare with care: the assays were run in different laboratories. Numbers after ± are the reported error.

For `CCCCCCNC(=O)n1cc(F)c(=O)[nH]c1=O`, the ceramide level was 0.4 ± 0.02 pmol/mg protein (SW-403; LC-MS, measured: Cer(d18:1/18:0); 0.3 µM).
`CN1CCN(c2ccc3nc(-c4c(N)c5c(F)cccc5[nH]c4=O)[nH]c3c2)CC1` has a beat rate of 75.6% (iCell Cardiomyocytes (hiPSC-derived); xCELLigence Cardio impedance; concentration not given, 2 h; baseline: control).
`OC[C@H]1O[C@@H](O[C@H]2[C@H](O)[C@@H](O)[C@H](O)O[C@@H]2CO)[C@H](O)[C@@H](O)[C@@H]1O`: “z-scored log2 fold change” 0.154 (binding, equilibrium dialysis LC-MS; 5 µM, thermostabilized A2AR-BRIL construct; baseline: no-protein control, direction not given).
`C[C@@H](Oc1cc(-n2cnc3ccc(CN4CCN(C)CC4)cc32)sc1C(N)=O)c1ccccc1C(F)(F)F` gave an ATP level of 102% (iCell Cardiomyocytes (hiPSC-derived); CellTiter-Glo; concentration not given, 24 h; baseline: control).
With `O=C(/C=C/C=C/C=C/C1CCCCC1)NC1=C[C@@](O)(/C=C/C=C/C=C/C(=O)NC2=C(O)CCC2=O)[C@@H]2O[C@@H]2C1=O` the GI50 was 19.8 µM (HCC827; cell growth, CellTiter-Glo; 78 h).
`C=CCNC1=C2C[C@@H](C)C[C@H](OC)[C@H](O)[C@@H](C)/C=C(\C)[C@H](OC(N)=O)[C@@H](OC)/C=C\C=C(/C)C(=O)NC(=CC1=O)C2=O` gave a fibulin-3 level of -34.1% (ARPE-19 HiBiT fibulin-3; HiBiT luminescence; 5 µM).
`Cc1cc(Nc2ncc(Cl)c(Nc3ccccc3S(=O)(=O)C(C)C)n2)c(OC(C)C)cc1C1CCNCC1` — result for “log2 fold change”: -1.87 (CLB-GE; phosphoproteomics LC-MS/MS, measured: FAM111B phosphorylation; 200 nM, 60 min; baseline: untreated).
`Cc1ncc(COP(=O)(O)O)c(CN)c1O` — result for “z-scored log2 fold change”: 1.07 (binding, equilibrium dialysis LC-MS; 5 µM, thermostabilized A2AR-BRIL construct; baseline: no-protein control, direction not given).
`Cc1ccc(Nc2nccc(N(C)c3ccc4c(C)n(C)nc4c3)n2)cc1S(N)(=O)=O` has a cell index of 97.1% (iCell Cardiomyocytes (hiPSC-derived); cellular impedance; concentration not given, 24 h; baseline: control).
With `Clc1nc(NCc2ccco2)c2[nH]cnc2n1` the ΔPSI was 0.204 (FD iPSC-derived cardiomyocytes; alternative splicing, RNA-seq, measured: DPH3 exon chr3:16264154-16264229; unit not given; baseline: DMSO minus compound).
`O=C(c1ccc(/C=C/c2n[nH]c3ccccc23)cc1)N1CCNCC1` has a cell index of 106% (iCell Cardiomyocytes (hiPSC-derived); cellular impedance; concentration not given, 24 h; baseline: control).
For `COc1ccc2c(N(C)c3ccc(/C(C)=N/OCCN)cc3)c3c(Cl)coc3nc2c1`, phospho-ERK1/2 level read “decreased” (LNCaP C-81; immunoblot; 1 µM, 72 h, steroid-reduced medium).
For `CCn1cc(-c2cc(Cn3ccnc3)cc3c2CCN([C@H](c2cc(OC)ccn2)C2CC2)C3=O)c(C(F)(F)F)n1`, the EC50 was 0.13 µM (GP2d; cell growth, inhibitor; 120 h).
The beat amplitude of `CS(=O)(=O)N1CCN(Cc2cc3nc(-c4cccc5[nH]ncc45)nc(N4CCOCC4)c3s2)CC1` is reported as 109% (iCell Cardiomyocytes (hiPSC-derived); xCELLigence Cardio impedance; concentration not given, 2 h; baseline: control).
Under “relative cell number”, `O=C(O)c1ccc(-c2c[nH]c3ncc(-c4ccccc4)cc23)cc1C1CCCC1` is recorded as 113% (SK-OV-3; ATP; 0.01 µM, 4 days, 3D U-bottom low-attachment; baseline: untreated).
The beat amplitude of `Cc1[nH]c(/C=C2\C(=O)Nc3ccc(S(=O)(=O)Cc4c(Cl)cccc4Cl)cc32)c(C)c1C(=O)N1CCC[C@@H]1CN1CCCC1` is reported as 96.8% (iCell Cardiomyocytes (hiPSC-derived); xCELLigence Cardio impedance; concentration not given, 2 h; baseline: control).
For `CCn1cc(-c2cc(Cn3ccoc3=N)cc3c2CCN([C@@H](C)c2cc(OC)ccn2)C3=O)c(C(F)(F)F)n1`, the EC50 was greater than 30 µM (CAKI-2; cell growth, inhibitor; 120 h).
For `Cn1cc(-c2ccc(-c3cncc(Cl)c3N3CCC4(CCNC4=O)CC3)cc2)cn1`, “log2 fold change” read -2.7 (COLO 205; gene expression, microarray, measured: RPSA mRNA; concentration not given, 2 h; baseline: untreated cells).
`COc1cnc2cccc(N3CCc4c(cc(Cn5ccnc5C)cc4-c4cn(C)nc4C(F)(F)F)C3=O)c2c1` gave an EC50 of greater than 30 µM (HuH-1; cell growth, inhibitor; 120 h).
The selectivity ratio of `Cc1ccc(CNC(=S)N/N=C/c2ccc(N3CCC(O)CC3)cc2)cc1` is reported as 4.8 (BEAS-2B and A549; MTT; baseline: IC50 BEAS-2B over IC50 A549).

For quick reference, copied from above:
For `CCn1cc(-c2cc(Cn3ccoc3=N)cc3c2CCN([C@@H](C)c2cc(OC)ccn2)C3=O)c(C(F)(F)F)n1`, the EC50 was greater than 30 µM (CAKI-2; cell growth, inhibitor; 120 h).
